Published values of several laboratories.
Protocols differ between the studies behind these lines.
Organism: Staphylococcus aureus

CC[C@H](C)[C@H](NC(=O)[C@H](CC(C)C)NC(=O)[C@H](CCC(N)=O)NC(=O)[C@H](CO)NC(=O)[C@H](CCCNC(=N)N)NC(=O)[C@@H](N)CO)C(=O)N[C@H](C(=O)N[C@@H](Cc1c[nH]cn1)C(=O)N[C@@H](CCC(N)=O)C(=O)N[C@@H](CCCNC(=N)N)C(=O)N[C@@H](CC(C)C)C(=O)N[C@@H](Cc1ccccc1)C(N)=O)C(C)C — MIC (broth microdilution; Mueller Hinton broth): > 400 µg/mL
NC(=O)c1c(F)ccc(OCc2nc3cc(Cl)cnc3s2)c1F — MIC (microbial growth; ATCC43300; drug-resistant strain, clinical isolate): 1 µg/mL
CC[C@H](C)[C@H](NC(=O)[C@H](CCCN)NC(=O)[C@H](CC(N)=O)NC(=O)[C@H](Cc1c[nH]c2ccccc12)NC(=O)[C@H](Cc1ccccc1)NC(=O)[C@H](CCCN)NC(=O)[C@H](CCCNC(=N)N)NC(=O)[C@H](CC(C)C)NC(=O)[C@H](Cc1c[nH]c2ccccc12)NC(=O)[C@H](CCCN)NC(=O)[C@H](CCCNC(=N)N)NC(=O)[C@H](CC(C)C)NC(=O)CNC(C)=O)C(=O)N[C@@H](CCCN)C(=O)N[C@@H](CCCNC(=N)N)C(N)=O — MIC (broth microdilution; multidrug-resistant): 3.12 µM
CN1C(=O)[C@@H]2NC(=O)[C@@H]3NC(=O)[C@@H](c4ccc(O)cc4)NC(=O)[C@H](NC(=O)C(NCc4cc(O)cc(O)c4)c4ccc(O)cc4)Cc4c[nH]c5cc(ccc45)-c4cc3cc(c4O)Oc3ccc(cc3)C[C@H]1C(=O)N[C@@H](C(=O)O)c1ccc(O)c(c1)Oc1ccc2cc1 (stereo partly shown) — MIC (ATCC 33591 MRSA, Mueller-Hinton broth): 4 µg/mL
CC[C@H](C)[C@H](NC(=O)[C@H](C)NC(=O)[C@H](C)NC(=O)[C@H](Cc1ccccc1)NC(=O)[C@H](C)NC(=O)CNC(=O)[C@H](Cc1ccccc1)NC(=O)[C@@H](N)Cc1ccccc1)C(=O)N[C@@H](C)C(=O)N[C@@H](CO)C(=O)N[C@@H](CC(C)C)C(=O)N[C@H](C(=O)N[C@H](C(=O)N1CCC[C@H]1C(=O)N[C@@H](CCCCN)C(=O)N[C@@H](CC(C)C)C(=O)N[C@H](C(=O)N[C@@H](CCC(=O)O)C(=O)N[C@@H](CCCCN)C(=O)N[C@H](C(=O)N[C@@H](CCCCN)C(=O)N[C@@H](CCC(N)=O)C(=O)N[C@@H](C)C(=O)N[C@@H](CCCNC(=N)N)C(N)=O)[C@@H](C)CC)[C@@H](C)CC)[C@@H](C)CC)C(C)C — MIC (broth microdilution; MRSA ATCC 33592): 3.12 to 6.25 µM
CC[C@H](C)[C@H](NC(=O)CNC(=O)[C@H](CC(N)=O)NC(=O)[C@H](CCCNC(=N)N)NC(=O)[C@H](CS)NC(=O)[C@H](CCCNC(=N)N)NC(=O)CNC(=O)CNC(=O)[C@H](CCCCN)NC(=O)[C@H](Cc1ccc(O)cc1)NC(=O)[C@H](CCCNC(=N)N)NC(=O)[C@H](CCCCN)NC(=O)[C@@H](NC(=O)[C@H](CC(C)C)NC(=O)[C@H](CS)NC(=O)[C@H](Cc1c[nH]cn1)NC(=O)[C@H](C)NC(=O)[C@H](C)NC(=O)[C@H](CS)NC(=O)[C@H](C)NC(=O)[C@H](CO)NC(=O)[C@H](Cc1c[nH]cn1)NC(=O)[C@H](CC(N)=O)NC(=O)[C@H](CC(C)C)NC(=O)[C@H](CO)NC(=O)CNC(=O)[C@H](Cc1c[nH]c2ccccc12)NC(=O)[C@@H]1CCCN1C(=O)[C@@H](NC(=O)[C@H](CO)NC(=O)[C@H](C)NC(=O)[C@H](CO)NC(=O)[C@H](CC(C)C)NC(=O)[C@H](CC(C)C)NC(=O)[C@H](CC(=O)O)NC(=O)[C@H](CS)NC(=O)[C@@H](NC(=O)[C@H](C)N)[C@@H](C)O)[C@@H](C)O)[C@@H](C)O)C(=O)N[C@@H](CS)C(=O)N[C@@H](CCCNC(=N)N)C(=O)N[C@@H](CS)C(=O)N[C@@H](CCCNC(=N)N)C(=O)N[C@@H](CCCNC(=N)N)C(N)=O — MIC (ATCC 29213): 35 µg/mL
CC(C)C[C@@H]1NC(=O)[C@H](C)NC(=O)[C@H](C)NC(=O)[C@H](NC(=O)[C@H](CO)NC(=O)[C@@H](CCCCN)NC(=O)[C@@H](CC(C)C)NC(=O)[C@@H](N)Cc2ccccc2)[C@H](C(N)=O)OC1=O — MIC (MRSA ATCC 700698; TFA salt): 4 µg/mL
CCn1cc(C(=O)NCCCCCC(=O)N[C@@H](CCCNC(=N)N)C(=O)N[C@@H](Cc2c[nH]c3ccccc23)C(=O)N[C@@H](CCC(N)=O)C(=O)N[C@@H](Cc2c[nH]c3ccccc23)C(=O)N[C@@H](CCCNC(=N)N)C(=O)N[C@@H](Cc2c[nH]c3ccccc23)C(=O)N[C@@H](CCC(N)=O)C(=O)N[C@@H](Cc2c[nH]c3ccccc23)C(=O)N[C@@H](CCCNC(=N)N)C(N)=O)c(=O)c2cc3c(cc21)OCO3 — MIC (broth microdilution; ATCC 25923; 24 h, 37 °C): 54 µM
CC1=C[C@@]2(C)C(=C(C)[C@H]3[C@@H]4C[C@H](C)C[C@H](C)[C@H]4[C@H]4Oc5ccc(cc5)C[C@@H]5C(=O)NC(=O)[C@H]5C(=O)[C@@H]2[C@@H]43)[C@H]1C — MIC (microbial growth, broth dilution; ATCC700699 MRSA; drug-resistant strain): 12.5 µM
N=C(N)NCCC[C@@H]1NC(=O)[C@H](CCCNC(=N)N)NC(=O)[C@H](CCCNC(=N)N)NC(=O)[C@H](CCCNC(=N)N)NC(=O)[C@H](Cc2c[nH]c3ccccc23)NC(=O)[C@H](CCCNC(=N)N)NC(=O)[C@H](CCCNC(=N)N)NC(=O)[C@@H](N)CCn2cc(nn2)C[C@@H](C(N)=O)NC1=O — MIC (ATCC 25923; 24 h, 37 °C): 7.8 µg/mL

Excerpt of the above:
N=C(N)NCCC[C@@H]1NC(=O)[C@H](CCCNC(=N)N)NC(=O)[C@H](CCCNC(=N)N)NC(=O)[C@H](CCCNC(=N)N)NC(=O)[C@H](Cc2c[nH]c3ccccc23)NC(=O)[C@H](CCCNC(=N)N)NC(=O)[C@H](CCCNC(=N)N)NC(=O)[C@@H](N)CCn2cc(nn2)C[C@@H](C(N)=O)NC1=O — MIC (ATCC 25923; 24 h, 37 °C): 7.8 µg/mL
